Assay results pooled from the literature.
Parts stem from different laboratories: compare values within a part only. Substitutions count along the parent as printed.
UniProt P17106, sequence (whole entry, looked up): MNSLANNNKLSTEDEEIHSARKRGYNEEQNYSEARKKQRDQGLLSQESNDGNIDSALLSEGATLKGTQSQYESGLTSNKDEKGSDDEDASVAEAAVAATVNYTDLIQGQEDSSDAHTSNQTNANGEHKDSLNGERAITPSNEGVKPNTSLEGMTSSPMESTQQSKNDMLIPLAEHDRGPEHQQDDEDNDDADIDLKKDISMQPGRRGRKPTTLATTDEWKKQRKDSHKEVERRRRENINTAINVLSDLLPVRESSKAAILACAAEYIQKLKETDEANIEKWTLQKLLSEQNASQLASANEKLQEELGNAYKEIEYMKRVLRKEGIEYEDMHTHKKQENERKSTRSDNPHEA

Set 1
Target: CCND1, cyclin fold, Cln2 fusion (human)
Technique: yeast growth competition, sequencing
Medium: yeast
Setting: weak parent motif
Baseline: not given
Direction: higher = stronger binding
Starting sequence: viral docking peptide; TSVRRALFTGGSD
Change	normalised enrichment score
TTVRRALFTGGSD [S2T]	0.619
TSVHRALFTGGSD [R4H]	-0.268
TSVRLALFTGGSD [R5L]	-0.108
TSVRRALFTGGND [S12N]	0.524
TSVRKALLTGGSD [R5K F8L]	0.262
TSVRRALFTYGSD [G10Y]	0.399
TSMRRALFTGGSD [V3M]	0.111
TSVRRALFTGGLD [S12L]	0.117

Set 2
Target: tungstate, free oxyanion
Technique: microfluidic competitive inhibition
Medium: in vitro, cell-free expressed
Tested at: not given
Setting: derived from inhibition constants, unchanged parent 2230 nM
Direction: lower = stronger binding
Starting sequence: PafA, mature enzyme, eGFP fusion (Elizabethkingia meningoseptica, UniProt Q9KJX5); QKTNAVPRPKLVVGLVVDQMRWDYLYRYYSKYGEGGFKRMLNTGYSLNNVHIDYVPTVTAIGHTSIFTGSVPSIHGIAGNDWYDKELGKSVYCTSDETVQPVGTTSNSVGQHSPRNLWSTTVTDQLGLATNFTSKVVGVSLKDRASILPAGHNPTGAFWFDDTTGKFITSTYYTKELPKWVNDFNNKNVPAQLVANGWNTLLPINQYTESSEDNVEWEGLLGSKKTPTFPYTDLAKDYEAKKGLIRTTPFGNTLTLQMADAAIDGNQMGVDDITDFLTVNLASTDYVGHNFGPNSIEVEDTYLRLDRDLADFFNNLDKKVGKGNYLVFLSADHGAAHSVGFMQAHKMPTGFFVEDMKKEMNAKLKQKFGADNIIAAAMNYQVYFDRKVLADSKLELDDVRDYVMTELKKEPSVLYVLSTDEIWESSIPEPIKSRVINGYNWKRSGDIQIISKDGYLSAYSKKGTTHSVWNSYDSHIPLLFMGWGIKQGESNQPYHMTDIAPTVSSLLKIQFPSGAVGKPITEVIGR
Change	oxyanion analog dissociation constant
S70V	1.89 µM
N437G	2.07 µM
E299V	2.19 µM
T502G	1.5 µM
K462G	2.05 µM
P348G	1.14 µM
A191G	1.8 µM
K319V	2.23 µM

Mixed results
CDPK1: Calcium-dependent protein kinase 1 (CDPK1, Plasmodium falciparum, UniProt P62344)
Substance	tested on	test	test system	setting	how to read	measurement	value
Cc1noc([C@H]2C[C@@H](c3ccc(C(F)(F)F)cc3)CN(C(=O)N3CCS(=O)(=O)C3)C2)n1	CDPK1	cell-free assay, competition with immobilised ligand		1 µM		remaining binding	82%
CN1C(=O)CN=C(c2ccccc2)c2cc(Cl)ccc21	Sarcocystis neurona	parasite growth		10 µM, 96 h, second screen	baseline: untreated	log2 fold change	0.35
Nc1c(C(=O)NCc2ccc(C(=O)NCCCC3CCCCC3)cc2)cnn1-c1ccccc1	CDPK1	cell-free assay, competition with immobilised ligand		0.1 µM		remaining binding	86%
Oc1c(Cl)cc(Cl)c(Cl)c1Cc1c(O)c(Cl)cc(Cl)c1Cl	Sarcocystis neurona	parasite growth		10 µM, 96 h, second screen	baseline: untreated	log2 fold change	-1.75
CTATAAAATGGTAATGGCACGTGATAGTAGTGGTTCGTCTTGATTCGCTTGACGCTGCTG	Centromere-binding protein 1, full length, N-terminal tag (CBF1, Saccharomyces cerevisiae, UniProt P17106, residues 1-351)	protein-binding microarray	double-stranded DNA, one strand shown, in vitro	0.8 µM, whole 60-bp probe, no competitor	higher = stronger binding	fluorescence intensity	10500 a.u.
